Measurements of several laboratories.
± gives the spread as reported.
Cytochrome P450 2A13: Cytochrome P450 2A13 (Homo sapiens, UniProt Q16696)
Chain of UniProt Q16696 (whole entry, looked up): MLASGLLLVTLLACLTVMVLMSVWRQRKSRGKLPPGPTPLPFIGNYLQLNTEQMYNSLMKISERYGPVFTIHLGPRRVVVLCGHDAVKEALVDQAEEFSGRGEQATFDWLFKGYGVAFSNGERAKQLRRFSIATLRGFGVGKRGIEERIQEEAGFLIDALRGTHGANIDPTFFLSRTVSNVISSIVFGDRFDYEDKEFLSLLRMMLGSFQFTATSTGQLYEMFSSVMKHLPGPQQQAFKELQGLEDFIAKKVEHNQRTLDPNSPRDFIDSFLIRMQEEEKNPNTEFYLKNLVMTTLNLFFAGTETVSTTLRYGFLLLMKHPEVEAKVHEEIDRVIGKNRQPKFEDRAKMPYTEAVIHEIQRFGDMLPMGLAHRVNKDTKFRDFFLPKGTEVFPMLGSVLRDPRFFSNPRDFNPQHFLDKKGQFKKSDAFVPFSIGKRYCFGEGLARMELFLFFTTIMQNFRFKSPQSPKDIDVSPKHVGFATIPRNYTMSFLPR
Chain of UniProt O88703 (whole entry, looked up): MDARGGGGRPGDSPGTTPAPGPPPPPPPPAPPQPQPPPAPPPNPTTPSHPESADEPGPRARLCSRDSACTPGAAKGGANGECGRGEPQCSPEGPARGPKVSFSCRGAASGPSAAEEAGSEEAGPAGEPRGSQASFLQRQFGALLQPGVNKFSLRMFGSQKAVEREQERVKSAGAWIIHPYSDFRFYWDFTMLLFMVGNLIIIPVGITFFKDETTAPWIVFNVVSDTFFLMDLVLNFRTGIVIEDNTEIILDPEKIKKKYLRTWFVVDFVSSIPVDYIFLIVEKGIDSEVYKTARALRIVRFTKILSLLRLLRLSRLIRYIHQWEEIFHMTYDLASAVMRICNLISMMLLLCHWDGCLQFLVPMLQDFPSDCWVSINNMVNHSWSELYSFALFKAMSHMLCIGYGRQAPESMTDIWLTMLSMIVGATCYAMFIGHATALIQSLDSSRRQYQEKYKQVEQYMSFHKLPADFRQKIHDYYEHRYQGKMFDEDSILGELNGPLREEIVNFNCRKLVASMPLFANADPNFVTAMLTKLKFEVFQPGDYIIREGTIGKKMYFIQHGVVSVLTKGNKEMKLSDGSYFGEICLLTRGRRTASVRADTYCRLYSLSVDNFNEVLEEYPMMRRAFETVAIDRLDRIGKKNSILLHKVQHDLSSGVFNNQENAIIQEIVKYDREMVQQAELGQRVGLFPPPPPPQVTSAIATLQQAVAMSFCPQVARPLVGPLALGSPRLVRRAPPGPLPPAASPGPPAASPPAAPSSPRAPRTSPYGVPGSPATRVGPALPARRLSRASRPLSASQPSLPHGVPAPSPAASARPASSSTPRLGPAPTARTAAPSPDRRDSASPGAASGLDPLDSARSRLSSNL
Chain of UniProt P83410 (whole entry, looked up): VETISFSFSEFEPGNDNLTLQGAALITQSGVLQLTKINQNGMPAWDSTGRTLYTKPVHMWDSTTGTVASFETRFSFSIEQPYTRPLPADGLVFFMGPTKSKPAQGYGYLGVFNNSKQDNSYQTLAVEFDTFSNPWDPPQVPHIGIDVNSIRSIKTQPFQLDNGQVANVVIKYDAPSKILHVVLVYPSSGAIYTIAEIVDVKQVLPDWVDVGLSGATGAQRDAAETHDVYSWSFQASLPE
Chain of UniProt Q9WYT0 (whole entry, looked up): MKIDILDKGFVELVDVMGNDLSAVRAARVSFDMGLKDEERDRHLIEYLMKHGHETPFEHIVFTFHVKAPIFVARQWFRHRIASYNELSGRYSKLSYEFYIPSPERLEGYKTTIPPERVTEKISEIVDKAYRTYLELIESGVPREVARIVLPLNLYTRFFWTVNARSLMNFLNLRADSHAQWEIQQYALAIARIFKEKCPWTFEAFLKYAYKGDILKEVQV
Chain of UniProt Q96C45 (whole entry, looked up): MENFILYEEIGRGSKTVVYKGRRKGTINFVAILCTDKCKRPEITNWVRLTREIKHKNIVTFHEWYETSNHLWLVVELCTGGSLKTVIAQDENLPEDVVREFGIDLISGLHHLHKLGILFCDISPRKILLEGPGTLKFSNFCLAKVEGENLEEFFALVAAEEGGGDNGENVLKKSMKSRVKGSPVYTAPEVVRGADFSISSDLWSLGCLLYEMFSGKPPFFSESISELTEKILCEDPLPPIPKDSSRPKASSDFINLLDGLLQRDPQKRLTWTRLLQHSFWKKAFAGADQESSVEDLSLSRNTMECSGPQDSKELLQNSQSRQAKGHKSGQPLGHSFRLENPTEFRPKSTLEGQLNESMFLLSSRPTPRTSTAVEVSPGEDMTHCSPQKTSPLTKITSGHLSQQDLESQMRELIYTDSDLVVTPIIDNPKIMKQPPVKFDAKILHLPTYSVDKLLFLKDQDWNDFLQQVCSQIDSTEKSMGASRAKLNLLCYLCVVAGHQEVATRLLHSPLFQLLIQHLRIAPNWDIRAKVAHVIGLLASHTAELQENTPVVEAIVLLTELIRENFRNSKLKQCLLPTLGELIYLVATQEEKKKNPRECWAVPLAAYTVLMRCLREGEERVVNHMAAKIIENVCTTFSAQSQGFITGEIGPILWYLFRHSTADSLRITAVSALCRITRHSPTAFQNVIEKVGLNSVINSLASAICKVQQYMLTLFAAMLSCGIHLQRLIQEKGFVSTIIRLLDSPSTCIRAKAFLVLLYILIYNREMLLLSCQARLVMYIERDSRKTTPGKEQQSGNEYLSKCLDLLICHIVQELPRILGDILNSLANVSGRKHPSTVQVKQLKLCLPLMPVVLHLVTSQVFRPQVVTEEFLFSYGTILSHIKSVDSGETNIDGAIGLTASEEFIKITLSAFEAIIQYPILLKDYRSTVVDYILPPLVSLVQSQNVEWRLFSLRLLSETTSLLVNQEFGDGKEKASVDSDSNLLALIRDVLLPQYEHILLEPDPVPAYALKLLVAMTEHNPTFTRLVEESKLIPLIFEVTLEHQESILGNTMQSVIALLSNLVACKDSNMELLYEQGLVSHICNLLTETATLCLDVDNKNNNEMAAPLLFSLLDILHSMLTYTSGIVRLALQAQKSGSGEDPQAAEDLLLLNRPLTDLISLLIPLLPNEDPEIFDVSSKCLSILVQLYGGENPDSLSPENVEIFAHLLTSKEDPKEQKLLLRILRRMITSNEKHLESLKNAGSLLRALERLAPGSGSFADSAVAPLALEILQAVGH
Chain of UniProt Q26239 (whole entry, unmodified, looked up): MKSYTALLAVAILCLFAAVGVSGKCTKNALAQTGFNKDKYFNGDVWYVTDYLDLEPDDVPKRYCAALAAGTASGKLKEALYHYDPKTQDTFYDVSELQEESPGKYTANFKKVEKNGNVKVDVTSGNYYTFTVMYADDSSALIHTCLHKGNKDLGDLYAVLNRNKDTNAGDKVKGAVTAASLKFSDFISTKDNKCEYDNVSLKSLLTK
Chain of UniProt Q9BYF1 (whole entry, looked up): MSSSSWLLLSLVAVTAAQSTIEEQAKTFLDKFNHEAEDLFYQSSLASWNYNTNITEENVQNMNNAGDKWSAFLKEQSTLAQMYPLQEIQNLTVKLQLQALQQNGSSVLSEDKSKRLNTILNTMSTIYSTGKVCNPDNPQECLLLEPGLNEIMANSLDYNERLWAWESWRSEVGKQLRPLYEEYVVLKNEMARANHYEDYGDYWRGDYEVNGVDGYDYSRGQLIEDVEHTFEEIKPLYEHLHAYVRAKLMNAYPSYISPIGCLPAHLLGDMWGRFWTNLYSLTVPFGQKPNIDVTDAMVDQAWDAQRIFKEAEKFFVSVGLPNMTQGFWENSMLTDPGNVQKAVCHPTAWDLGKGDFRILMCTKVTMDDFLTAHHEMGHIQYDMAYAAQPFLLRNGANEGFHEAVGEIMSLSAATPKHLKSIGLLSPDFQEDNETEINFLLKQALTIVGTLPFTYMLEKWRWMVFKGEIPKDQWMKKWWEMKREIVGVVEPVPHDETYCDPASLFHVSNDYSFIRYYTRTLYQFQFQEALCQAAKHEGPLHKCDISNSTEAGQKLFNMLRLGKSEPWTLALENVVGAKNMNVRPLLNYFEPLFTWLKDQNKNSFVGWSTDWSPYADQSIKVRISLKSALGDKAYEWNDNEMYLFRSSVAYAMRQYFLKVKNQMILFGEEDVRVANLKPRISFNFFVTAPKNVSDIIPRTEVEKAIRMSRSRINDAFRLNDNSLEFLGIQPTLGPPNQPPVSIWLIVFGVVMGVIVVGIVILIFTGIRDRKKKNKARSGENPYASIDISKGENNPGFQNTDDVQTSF
Chain of UniProt P63092 (whole entry, looked up): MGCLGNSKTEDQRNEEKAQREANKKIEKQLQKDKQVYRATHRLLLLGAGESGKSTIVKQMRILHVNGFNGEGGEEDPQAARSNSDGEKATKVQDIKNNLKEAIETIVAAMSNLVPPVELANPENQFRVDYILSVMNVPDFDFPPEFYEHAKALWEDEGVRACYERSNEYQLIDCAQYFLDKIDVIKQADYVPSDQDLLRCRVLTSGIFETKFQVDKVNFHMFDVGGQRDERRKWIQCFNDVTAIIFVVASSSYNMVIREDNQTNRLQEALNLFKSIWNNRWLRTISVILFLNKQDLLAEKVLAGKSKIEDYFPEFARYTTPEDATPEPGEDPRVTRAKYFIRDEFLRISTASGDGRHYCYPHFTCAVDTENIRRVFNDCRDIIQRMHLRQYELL
Chain of UniProt Q2FV99 (whole entry, looked up): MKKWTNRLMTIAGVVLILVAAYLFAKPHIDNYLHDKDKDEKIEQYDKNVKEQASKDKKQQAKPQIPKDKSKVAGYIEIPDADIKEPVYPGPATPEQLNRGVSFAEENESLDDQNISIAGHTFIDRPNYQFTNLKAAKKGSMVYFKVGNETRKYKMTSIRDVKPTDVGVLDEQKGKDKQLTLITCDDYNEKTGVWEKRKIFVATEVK
Chain of UniProt P62577 (whole entry, looked up): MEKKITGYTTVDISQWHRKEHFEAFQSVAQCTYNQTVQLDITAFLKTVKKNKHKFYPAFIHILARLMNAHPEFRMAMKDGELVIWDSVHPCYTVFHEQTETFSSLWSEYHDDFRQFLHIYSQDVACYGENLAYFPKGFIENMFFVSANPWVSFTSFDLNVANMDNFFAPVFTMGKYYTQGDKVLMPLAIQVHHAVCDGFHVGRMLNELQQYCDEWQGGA

CC(=O)N[C@H]1C(O)O[C@H](CO)[C@@H](O[C@@H]2O[C@H](CO)[C@H](O)[C@H](O)[C@H]2O)[C@@H]1O (stereo partly drawn)  Kd (Lectin (Erythrina crista-galli, UniProt P83410); BLI competition; solution Kd, together with: LacNAc-biotin biosensor): 80 µM
O=C(N[C@H](CO)[C@H](O)c1ccc([N+](=O)[O-])cc1)C(Cl)Cl  Kd (Chloramphenicol acetyltransferase (cat, Escherichia coli, UniProt P62577); ligand, native ESI-MS; third ligand binding, gas phase, together with: 200 mM ammonium acetate): 130 ± 40 µM
COc1cc(O)c2c(c1)C(=O)c1cc(C)cc(O)c1C2=O  Kd (Angiotensin-converting enzyme 2 (ACE2, Homo sapiens, UniProt Q9BYF1); binding, SPR): 0.379 µM
c1c[nH]cn1  Kd (Nitrophorin-1 (Rhodnius prolixus, UniProt Q26239, H82C); binding, UV/Vis titration; pH 7.4, 25 °C, H60C mutant complex): 120 ± 1e-05 µM
CSCC[C@H](NC(=O)[C@H](CC(C)C)NC(=O)[C@H](Cc1ccccc1)NC(=O)[C@H](CC(=O)O)NC(=O)[C@H](Cc1ccc(O)cc1)NC(=O)[C@H](Cc1c[nH]c2ccccc12)NC(=O)[C@@H](NC(=O)[C@@H](NC(=O)[C@H](CCCNC(=N)N)NC(=O)[C@@H](N)CO)C(C)C)[C@@H](C)O)C(=O)N[C@@H](CCC(=O)O)C(=O)N[C@@H](CC(=O)O)C(=O)N[C@H](C(=O)N[C@@H](CCCCN)C(=O)N[C@@H](CO)C(=O)N[C@@H](CCCNC(=N)N)C(=O)O)[C@@H](C)O  Kd (GNAS, GDP-bound (Homo sapiens, UniProt P63092); microscale thermophoresis): no binding
CC[N+](CC)(CC)CC(=O)Nc1c(C)cccc1C  Kd (sodium channel (rat brain), batrachotoxin-modified; open channel block, blocker, planar lipid bilayer, single channel; high-Kd period, +60 mV): 12000 µM
CC(C)C[C@@H]1NC(=O)[C@H](Cc2c[nH]cn2)NC(=O)[C@H](Cc2c[nH]c3ccccc23)NC(=O)[C@H](C)NC(=O)[C@@H]2CSSC[C@H](NC(=O)[C@H](Cc3c[nH]c4ccccc34)NC(=O)[C@H](C(C)C)NC(=O)[C@H](CC(C)C)NC(=O)[C@H](CCC(=O)O)NC(=O)CNC1=O)C(=O)N[C@@H]([C@@H](C)O)C(=O)N[C@H](C(N)=O)CSSC[C@H](NC(=O)CCOCCOCCOCCOCCOCCOCCNC(=O)CC[C@H](NC(=O)c1ccc(NCc3cnc4nc(N)[nH]c(=O)c4n3)cc1)C(=O)O)C(=O)N[C@@H](CC(=O)O)C(=O)N2  Kd (Immunoglobulin heavy constant gamma 1, Fc region (IGHG1, Homo sapiens, UniProt P01857); binding, surface plasmon resonance; pH 7.4, together with: immobilised trastuzumab): 0.0061 µM
O=C(CC1NCCCC1O)Cn1cnc2cc(Br)c(Cl)cc2c1=O (stereo not drawn)  Kd (Proline--tRNA ligase (Plasmodium falciparum, UniProt Q8I5R7); binding, MST): 0.0738 µM
CNc1ccccc1C(=O)O[C@H]1[C@@H](O)[C@H](n2cnc3c(N)ncnc32)O[C@@H]1COP(=O)(O)OP(=O)(O)O  Kd (Serine/threonine-protein kinase ULK4 (ULK4, Homo sapiens, UniProt Q96C45); nucleotide binding, FRET; without Mg2+): 4.69 µM
C#Cc1cc2ccccc2c2ccccc12  Kd (Cytochrome P450 2A13; binding, absorbance; pH 7.4): 0.95 µM
cGMP  Kd (Potassium/sodium hyperpolarization-activated cyclic nucleotide-gated channel 2, C-terminal region (Hcn2, Mus musculus, UniProt O88703); binding): 0.36 µM
C=CC1=C(C)c2cc3[nH]c(cc4nc(cc5[nH]c(cc1n2)c(C)c5C=C)C(C)=C4CCC(=O)O)c(CCC(=O)O)c3C.[Fe+3]  Kd (Ferrichrome-binding lipoprotein FhuD (Listeria monocytogenes, UniProt Q8Y5U6); binding, tryptophan fluorescence quenching): 0.588 ± 0.079 µM
CC[C@H](C)[C@H](NC(=O)[C@H](CCCNC(=N)N)NC(=O)CNC(=O)[C@H](Cc1c[nH]c2ccccc12)NC(=O)[C@@H]1CSC[C@@H](NC(=O)[C@H](Cc2ccc(O)cc2)NC(=O)[C@H](Cc2c[nH]c3ccccc23)NC(=O)[C@H](CC(C)C)NC(=O)CNC(=O)[C@H](CCCNC(=N)N)NC(=O)c2ccc3c(c2)C(=O)OC32c3ccc(O)cc3Oc3cc(O)ccc32)C(=O)N[C@@H](CC(C)C)C(=O)N[C@@H](CO)C(=O)N1)C(=O)NCC(=O)N[C@@H](CCCNC(=N)N)C(=O)N[C@@H](CCCNC(=N)N)C(=O)NCCCOCCOCCOCCCNC(=O)CCC(=O)NCCCOCCOCCOCCCNC(=O)CCC(=O)NCCCOCCOCCOCCCNC(=O)CCC(=O)N[C@@H](C)C(=O)O  Kd (srtA (Staphylococcus aureus, UniProt Q2FV99); binding, fluorescence polarization; no Ca2+, 2 mM EDTA; lower = stronger binding): > 1000 µM
CC(=O)N[C@@H](C)C(=O)N[C@@H](Cc1ccccc1)C(=O)N[C@@H](CCCNC(=N)N)C(=O)N[C@@H](C)C(=O)N[C@@H](CC(=O)O)C(=O)N[C@H](C(=O)N[C@@H](CCCNC(=N)N)C(=O)N[C@@H](C)C(=O)N[C@@H](CCC(=O)O)C(=O)N[C@@H](CCCNC(=N)N)C(=O)N[C@@H](C)C(=O)N[C@@H](CCC(=O)O)C(N)=O)C(C)C  Kd (Amyloid-beta precursor protein, Aβ40 fibrils (APP, Homo sapiens, UniProt P05067); binding to Aβ40 fibrils, fluorescence polarization; 24 h, pH 7.4, 25 °C, together with: 100 µM Aβ40 fibrils): 25.1 µM
CC[C@H](C)[C@@H]1NC(=O)[C@H](CC(N)=O)NC(=O)[C@H](C)NC(=O)[C@@H](NC(=O)[C@H](CO)NC(=O)[C@H](CCC(N)=O)NC(C)=O)CSCc2cccc(c2)C[S+](C)CC[C@@H](C(=O)N[C@@H](Cc2ccc(O)cc2)C(=O)N[C@@H](CCCCN)C(=O)N[C@H](C(=O)O)C(C)C)NC1=O (stereo partly drawn)  Kd (Regulator of G-protein signaling 3, PDZ domain (Rgs3, Mus musculus, UniProt Q9DC04); fluorescence polarization; 1 h, pH 7.4, 25 °C, together with: FAM-labelled peptide tracer): 16.9 µM
CN[C@@](C)(C[18F])C(=O)O  tracer uptake (A549 tumour model; host not given, lung; 15 min, tumour-bearing): 3.7 %ID/g
CCCCCCCC[N+](C)(C)CCO  Kd (potassium channel; steady-state block; Doryteuthis pealeii; internal application, together with: membrane potential +100 mV): > 2000 µM
O=c1ccn([C@H]2C[C@H](O)[C@@H](COS(=O)(=O)O)O2)c(=O)[nH]1  Kd (thyX (Thermotoga maritima, UniProt Q9WYT0)): 0.17 ± 0.08 µM
CSCC[C@H](NC(C)=O)C(=O)N[C@@H](C)C(=O)N[C@@H](C)C(=O)N[C@H](C(=O)N[C@@H](C)C(=O)NCC(=O)N[C@@H](CC(C)C)C(=O)N[C@@H](Cc1ccc(O)cc1)C(=O)NCC(=O)N[C@@H](CC(C)C)C(=O)NCC(=O)N[C@@H](CCCCN)C(=O)N[C@@H](CCCCN)C(=O)N[C@@H](CCCNC(=N)N)C(=O)N[C@@H](CCC(N)=O)C(=O)N[C@@H](Cc1c[nH]cn1)C(=O)N[C@@H](CCCNC(=N)N)C(=O)N[C@@H](CCCCN)C(=O)N[C@@H](CCCCN)C(=O)N[C@@H](CCC(N)=O)C(N)=O)C(C)C  Kd (Kcnma1 (Mus musculus, UniProt Q08460, E386N/E389N); ion current, blocker, inside-out patch clamp; E321N/E324N double mutant, 120 mV): 89 µM
O=C(CCNS(=O)(=O)c1cccc2nsnc12)N1CCN(c2ccncc2)CC1  Kd (Muscarinic acetylcholine receptor M1 (CHRM1, Homo sapiens, UniProt P11229); phosphoinositide hydrolysis, antagonist, Schild analysis; together with: acetylcholine): 0.016 µM
CCCCCCCCCC[N+](CCO)(CCO)CCO  Kd (potassium channel; steady-state block; Doryteuthis pealeii; internal application, together with: membrane potential +100 mV): 132 µM
CC#Cc1ccc2ccc3ccccc3c2c1  Kd (Cytochrome P450 2A13; binding, absorbance; pH 7.4): 1.2 µM
CCc1nc2ccccc2cc1C(=O)O  Kd (HIV-1 frameshift-stimulating RNA stem-loop; fluorescence titration; pH 7.2, 25 °C, together with: 20-fold yeast tRNA): no binding
bleomycin  Kd (Peptide antibiotic transporter SbmA (sbmA, Escherichia coli, UniProt P0AFY6); microscale thermophoresis; nanodiscs; room temperature): 0.088 ± 0.014 µM
